Results from different studies.
A part holds a random share of what one study measured.
Sequence of UniProt Q13554 (whole entry, looked up): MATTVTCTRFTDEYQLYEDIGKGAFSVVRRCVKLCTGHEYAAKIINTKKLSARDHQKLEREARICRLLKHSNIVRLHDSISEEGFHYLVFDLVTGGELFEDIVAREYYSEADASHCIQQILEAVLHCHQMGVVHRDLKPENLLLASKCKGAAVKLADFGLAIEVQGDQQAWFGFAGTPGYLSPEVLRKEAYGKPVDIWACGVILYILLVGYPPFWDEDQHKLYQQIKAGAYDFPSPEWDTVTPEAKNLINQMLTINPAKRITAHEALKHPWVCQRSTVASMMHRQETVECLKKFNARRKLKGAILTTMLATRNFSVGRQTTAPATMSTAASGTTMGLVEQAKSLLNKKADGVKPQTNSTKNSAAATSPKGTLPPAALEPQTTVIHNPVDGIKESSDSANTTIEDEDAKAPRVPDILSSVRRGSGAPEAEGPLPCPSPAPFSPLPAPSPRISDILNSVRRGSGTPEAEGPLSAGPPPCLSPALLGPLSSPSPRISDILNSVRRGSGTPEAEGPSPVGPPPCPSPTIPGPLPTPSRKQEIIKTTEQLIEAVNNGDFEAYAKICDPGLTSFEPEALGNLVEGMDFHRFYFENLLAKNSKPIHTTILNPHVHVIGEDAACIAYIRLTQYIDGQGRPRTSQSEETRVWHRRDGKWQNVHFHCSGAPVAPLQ
Sequence of UniProt Q96J92 (whole entry, looked up): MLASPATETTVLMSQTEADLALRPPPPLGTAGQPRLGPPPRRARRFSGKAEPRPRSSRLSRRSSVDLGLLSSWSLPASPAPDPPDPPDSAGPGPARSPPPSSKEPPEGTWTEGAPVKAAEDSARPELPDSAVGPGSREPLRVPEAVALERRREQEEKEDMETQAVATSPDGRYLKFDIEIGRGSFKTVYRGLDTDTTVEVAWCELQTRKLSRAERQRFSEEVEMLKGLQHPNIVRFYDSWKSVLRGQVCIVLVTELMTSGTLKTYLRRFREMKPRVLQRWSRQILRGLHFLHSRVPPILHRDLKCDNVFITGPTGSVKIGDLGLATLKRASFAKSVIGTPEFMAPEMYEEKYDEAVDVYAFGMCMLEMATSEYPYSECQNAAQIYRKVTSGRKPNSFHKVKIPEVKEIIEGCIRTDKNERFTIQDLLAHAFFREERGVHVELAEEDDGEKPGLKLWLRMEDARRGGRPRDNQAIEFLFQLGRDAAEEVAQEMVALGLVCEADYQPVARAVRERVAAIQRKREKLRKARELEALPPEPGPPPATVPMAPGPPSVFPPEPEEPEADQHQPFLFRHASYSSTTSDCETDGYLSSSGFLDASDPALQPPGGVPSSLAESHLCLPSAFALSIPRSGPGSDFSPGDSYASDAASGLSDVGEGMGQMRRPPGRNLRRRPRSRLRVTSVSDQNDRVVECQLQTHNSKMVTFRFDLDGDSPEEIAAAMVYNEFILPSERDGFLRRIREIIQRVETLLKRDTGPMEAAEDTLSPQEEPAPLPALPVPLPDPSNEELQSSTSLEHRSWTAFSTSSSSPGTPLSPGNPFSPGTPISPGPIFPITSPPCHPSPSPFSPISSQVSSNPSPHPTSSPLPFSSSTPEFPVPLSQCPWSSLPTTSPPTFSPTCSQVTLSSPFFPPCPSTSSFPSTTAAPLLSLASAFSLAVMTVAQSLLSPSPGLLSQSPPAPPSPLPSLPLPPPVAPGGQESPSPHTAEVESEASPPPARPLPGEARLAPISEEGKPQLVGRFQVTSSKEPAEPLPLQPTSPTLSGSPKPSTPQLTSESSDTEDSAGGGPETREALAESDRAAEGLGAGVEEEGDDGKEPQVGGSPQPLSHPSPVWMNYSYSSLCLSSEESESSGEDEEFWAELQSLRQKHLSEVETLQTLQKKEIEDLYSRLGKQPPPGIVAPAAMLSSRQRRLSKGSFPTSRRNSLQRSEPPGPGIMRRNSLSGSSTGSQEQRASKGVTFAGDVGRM
Sequence of UniProt P49760 (whole entry, looked up): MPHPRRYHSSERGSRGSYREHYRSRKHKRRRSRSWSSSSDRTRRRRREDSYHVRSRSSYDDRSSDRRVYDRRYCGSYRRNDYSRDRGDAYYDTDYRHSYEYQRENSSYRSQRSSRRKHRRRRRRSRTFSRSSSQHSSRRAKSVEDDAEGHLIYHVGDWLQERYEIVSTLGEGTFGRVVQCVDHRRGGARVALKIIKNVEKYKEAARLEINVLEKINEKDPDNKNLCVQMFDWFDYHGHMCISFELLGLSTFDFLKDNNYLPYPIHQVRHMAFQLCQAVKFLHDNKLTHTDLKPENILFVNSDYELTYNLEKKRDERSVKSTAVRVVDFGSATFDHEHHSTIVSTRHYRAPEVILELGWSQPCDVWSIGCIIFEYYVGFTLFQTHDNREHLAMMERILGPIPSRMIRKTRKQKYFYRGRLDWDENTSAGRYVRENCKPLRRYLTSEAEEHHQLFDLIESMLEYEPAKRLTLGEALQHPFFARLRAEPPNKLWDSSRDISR

Sample 1
Target: DNA polymerase theta, ATPase domain (POLQ, Homo sapiens, UniProt O75417)
Sequence of UniProt O75417 (whole entry, unmodified, looked up): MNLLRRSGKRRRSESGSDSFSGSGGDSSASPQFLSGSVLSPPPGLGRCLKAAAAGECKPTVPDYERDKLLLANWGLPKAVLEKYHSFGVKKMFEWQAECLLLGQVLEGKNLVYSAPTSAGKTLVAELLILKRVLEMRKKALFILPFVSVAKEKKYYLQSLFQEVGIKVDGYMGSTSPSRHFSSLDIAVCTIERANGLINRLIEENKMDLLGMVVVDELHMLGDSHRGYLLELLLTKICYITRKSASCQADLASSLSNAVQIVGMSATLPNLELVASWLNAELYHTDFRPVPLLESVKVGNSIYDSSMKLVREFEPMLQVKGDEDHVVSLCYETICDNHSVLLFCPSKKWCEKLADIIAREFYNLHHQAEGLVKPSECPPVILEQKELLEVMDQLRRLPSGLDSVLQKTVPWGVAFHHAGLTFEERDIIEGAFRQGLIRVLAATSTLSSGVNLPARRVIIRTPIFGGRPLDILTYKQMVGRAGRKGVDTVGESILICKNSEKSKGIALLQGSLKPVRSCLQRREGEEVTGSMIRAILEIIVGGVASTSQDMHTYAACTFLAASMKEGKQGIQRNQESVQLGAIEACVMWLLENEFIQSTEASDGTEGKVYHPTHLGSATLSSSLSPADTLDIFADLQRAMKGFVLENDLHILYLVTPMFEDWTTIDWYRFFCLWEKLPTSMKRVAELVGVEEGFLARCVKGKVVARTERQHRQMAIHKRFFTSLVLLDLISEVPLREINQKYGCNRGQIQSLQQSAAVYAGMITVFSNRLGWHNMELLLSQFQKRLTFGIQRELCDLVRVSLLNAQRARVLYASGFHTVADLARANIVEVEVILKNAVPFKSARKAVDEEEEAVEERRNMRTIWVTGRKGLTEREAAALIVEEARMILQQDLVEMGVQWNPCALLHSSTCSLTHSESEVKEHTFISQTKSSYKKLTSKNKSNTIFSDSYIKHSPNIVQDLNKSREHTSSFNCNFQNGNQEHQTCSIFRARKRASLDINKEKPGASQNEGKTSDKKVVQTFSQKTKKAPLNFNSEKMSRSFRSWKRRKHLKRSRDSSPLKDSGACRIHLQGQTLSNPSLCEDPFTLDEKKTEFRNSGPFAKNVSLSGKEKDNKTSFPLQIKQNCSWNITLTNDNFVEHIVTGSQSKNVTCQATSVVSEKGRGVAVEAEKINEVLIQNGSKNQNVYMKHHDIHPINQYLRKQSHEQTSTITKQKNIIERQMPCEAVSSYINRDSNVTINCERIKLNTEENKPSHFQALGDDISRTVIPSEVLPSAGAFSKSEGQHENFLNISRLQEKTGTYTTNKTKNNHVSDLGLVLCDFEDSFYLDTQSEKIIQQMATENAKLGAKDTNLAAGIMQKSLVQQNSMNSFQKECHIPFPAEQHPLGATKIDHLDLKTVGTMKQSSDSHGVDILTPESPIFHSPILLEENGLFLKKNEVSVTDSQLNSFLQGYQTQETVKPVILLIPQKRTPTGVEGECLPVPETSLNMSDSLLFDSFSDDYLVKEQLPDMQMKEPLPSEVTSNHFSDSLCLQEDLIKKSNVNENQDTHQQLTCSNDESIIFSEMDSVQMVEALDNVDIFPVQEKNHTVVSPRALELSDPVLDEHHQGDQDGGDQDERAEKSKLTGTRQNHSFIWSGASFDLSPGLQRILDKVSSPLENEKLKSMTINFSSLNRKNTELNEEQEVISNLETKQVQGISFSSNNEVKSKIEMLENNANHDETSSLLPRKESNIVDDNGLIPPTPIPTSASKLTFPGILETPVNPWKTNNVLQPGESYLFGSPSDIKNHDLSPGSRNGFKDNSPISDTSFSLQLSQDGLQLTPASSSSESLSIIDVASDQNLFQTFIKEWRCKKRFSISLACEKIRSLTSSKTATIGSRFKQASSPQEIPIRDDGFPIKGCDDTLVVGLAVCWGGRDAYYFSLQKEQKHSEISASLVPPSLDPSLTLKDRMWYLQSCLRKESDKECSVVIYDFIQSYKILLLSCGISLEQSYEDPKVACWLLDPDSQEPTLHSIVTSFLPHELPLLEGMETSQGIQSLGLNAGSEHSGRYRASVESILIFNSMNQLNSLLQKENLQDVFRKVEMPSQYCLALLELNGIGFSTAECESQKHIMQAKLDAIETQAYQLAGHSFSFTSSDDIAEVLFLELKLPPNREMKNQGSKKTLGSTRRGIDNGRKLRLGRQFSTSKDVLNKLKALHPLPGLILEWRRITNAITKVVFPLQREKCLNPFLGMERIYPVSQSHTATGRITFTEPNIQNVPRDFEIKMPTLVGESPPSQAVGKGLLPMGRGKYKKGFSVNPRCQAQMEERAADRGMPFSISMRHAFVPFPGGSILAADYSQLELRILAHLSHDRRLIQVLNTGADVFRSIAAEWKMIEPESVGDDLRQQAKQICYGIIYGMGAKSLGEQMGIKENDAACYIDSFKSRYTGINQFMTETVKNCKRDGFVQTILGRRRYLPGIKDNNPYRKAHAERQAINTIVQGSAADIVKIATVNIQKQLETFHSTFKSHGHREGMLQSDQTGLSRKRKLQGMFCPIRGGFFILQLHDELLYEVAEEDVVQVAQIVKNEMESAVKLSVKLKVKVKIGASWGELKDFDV
Observed: enzyme activity
Mode: inhibitor
Concentration: 77 µM
Baseline: untreated
| Structure (SMILES) | remaining activity [%] |
| --- | --- |
| CCCn1c(=O)c2[nH]c(C3CCCC3)nc2n(CCC)c1=O | 95.9 |
| O=C(O)c1ccc(-n2nc(-c3ccccc3O)nc2-c2ccccc2O)cc1 | 73.6 |
| Cc1ncc2ccccc2c1C#N | 106 |
| CC(S)C(=O)NCC(=O)O (stereo not shown) | 98.1 |
| CC[N+](C)(CC)CCOC(=O)C1c2ccccc2Oc2ccccc21 | 105 |
| S=C(S)O[C@@H]1C[C@@H]2C[C@@H]1[C@H]1CCC[C@@H]21 | 96.2 |
| CC[N+](CC)(CC)CCC(O)(c1ccccc1)C1CCCCC1 (stereo not shown) | 96.5 |
| N[C@H](CO)C(=O)O | 102 |
| COc1c2c(nc3ccccc13)OC(C(C)(O)CO)C2 (stereo not shown) | 102 |
| CCOC(=O)C1=C(C)NC(C)=C(C(=O)OCC)C1c1ccccc1/C=C/C(=O)OC(C)(C)C | 88.8 |

Sample 2
SMILES: O=C1NC(=O)c2c1c1c3ccccc3[nH]c1c1[nH]c3cc(Br)ccc3c21
Observed: enzyme activity
Mode: inhibitor
Concentration: 0.5 µM
Baseline: control
| target | remaining activity [%] |
| --- | --- |
| EPHB4 (Homo sapiens, UniProt P54760) | 86.5 |
| WNK3 (Homo sapiens, UniProt Q9BYP7) | 92.3 |
| RPS6KA5 (Homo sapiens, UniProt O75582) | 76.1 |
| MAP4K4 (Homo sapiens, UniProt O95819) | 29.3 |
| BLK (Homo sapiens, UniProt P51451) | 83.9 |
| DYRK3 (Homo sapiens, UniProt O43781) | 94.5 |
| CAMK2B (Homo sapiens, UniProt Q13554) | 80.3 |
| Cyclin-dependent kinase 4, with cyclin D3 (CDK4, Homo sapiens, UniProt P11802) | 21.1 |
| ABL1 (Homo sapiens, UniProt P00519) | 83.3 |
| Cyclin-dependent kinase 6, with cyclin D3 (CDK6, Homo sapiens, UniProt Q00534) | 40.2 |
| PDPK1 (Homo sapiens, UniProt O15530) | 66.1 |
| EPHB1 (Homo sapiens, UniProt P54762) | 95.5 |
| HIPK2 (Homo sapiens, UniProt Q9H2X6) | 107 |
| RPS6KA6 (Homo sapiens, UniProt Q9UK32) | 32.4 |
| STK16 (Homo sapiens, UniProt O75716) | 87.2 |
| STK17A (Homo sapiens, UniProt Q9UEE5) | 29.5 |
| AXL (Homo sapiens, UniProt P30530) | 82.9 |
| TSSK2 (Homo sapiens, UniProt Q96PF2) | 96.9 |
| SRMS (Homo sapiens, UniProt Q9H3Y6) | 91.5 |
| HIPK4 (Homo sapiens, UniProt Q8NE63) | 94.1 |
| MAPKAPK3 (Homo sapiens, UniProt Q16644) | 118 |
| Cyclin-dependent kinase 1, with cyclin B (CDK1, Homo sapiens, UniProt P06493) | 47.8 |
| PHKG1 (Homo sapiens, UniProt Q16816) | 40.7 |
| EPHA4 (Homo sapiens, UniProt P54764) | 91.3 |

Sample 3
Compound: CC1=C(C#N)C(c2ccc3c(c2)c(NC(=O)c2ccccc2C)nn3C)C(C#N)=C(C)N1
Concentration: 1 µM
| target | observed | method | remaining binding [%] |
| --- | --- | --- | --- |
| PAK1 (Homo sapiens, UniProt Q13153) | cell-free assay | competition with immobilised ligand | 100 |
| HIPK3 (Homo sapiens, UniProt Q9H422) | cell-free assay | competition with immobilised ligand | 73 |
| STK32A (Homo sapiens, UniProt Q8WU08) | cell-free assay | competition with immobilised ligand | 95 |
| WNK4 (Homo sapiens, UniProt Q96J92) | cell-free assay | competition with immobilised ligand | 95 |
| ALK (Homo sapiens, UniProt Q9UM73, C1156Y) | cell-free assay | competition with immobilised ligand | 96 |
| EGFR (Homo sapiens, UniProt P00533, L858R/T790M) | cell-free assay | competition with immobilised ligand | 93 |
| KIT (Homo sapiens, UniProt P10721, D816H) | cell-free assay | competition with immobilised ligand | 64 |
| CDK14 (Homo sapiens, UniProt O94921) | cell-free assay | competition with immobilised ligand | 100 |
| SIK1 (Homo sapiens, UniProt P57059) |  | competition binding | 88 |
| STK39 (Homo sapiens, UniProt Q9UEW8) | cell-free assay | competition with immobilised ligand | 92 |
| Myosin-IIIa (MYO3A, Homo sapiens, UniProt Q8NEV4) | binding | competition with immobilised ligand | 86 |
| FLT1 (Homo sapiens, UniProt P17948) | cell-free assay | competition with immobilised ligand | 100 |
| CAMK2B (Homo sapiens, UniProt Q13554) | cell-free assay | competition with immobilised ligand | 86 |
| GAK (Homo sapiens, UniProt O14976) | cell-free assay | competition with immobilised ligand | 100 |
| Macrophage colony-stimulating factor 1 receptor, autoinhibited (CSF1R, Homo sapiens, UniProt P07333) | cell-free assay | competition with immobilised ligand | 100 |
| RIPK4 (Homo sapiens, UniProt P57078) | cell-free assay | competition with immobilised ligand | 78 |
| CDK15 (Homo sapiens, UniProt Q96Q40) | cell-free assay | competition with immobilised ligand | 100 |
| KDR (Homo sapiens, UniProt P35968) | cell-free assay | competition with immobilised ligand | 80 |
| EGFR (Homo sapiens, UniProt P00533, del747-752/P753S) | cell-free assay | competition with immobilised ligand | 73 |
| RET (Homo sapiens, UniProt P07949, M918T) | cell-free assay | competition with immobilised ligand | 100 |
| PIP4K2B (Homo sapiens, UniProt P78356) | cell-free assay | competition with immobilised ligand | 83 |
| FLT3 (Homo sapiens, UniProt P36888) | cell-free assay | competition with immobilised ligand | 90 |
| Ribosomal protein S6 kinase alpha-3, C-terminal kinase domain (RPS6KA3, Homo sapiens, UniProt P51812) | cell-free assay | competition with immobilised ligand | 94 |
| ERBB4 (Homo sapiens, UniProt Q15303) | cell-free assay | competition with immobilised ligand | 65 |
| CLK2 (Homo sapiens, UniProt P49760) | cell-free assay | competition with immobilised ligand | 75 |

Sample 4
Organism: Sarcocystis neurona
Observed: parasite growth
Concentration: 10 µM
| Structure (SMILES) | inhibition |
| --- | --- |
| NCc1ccc(S(N)(=O)=O)cc1 | -35.6% |
| CN(C)CCCC1(c2ccc(F)cc2)OCc2cc(C#N)ccc21 (stereo not shown) | 3.8% |
| CCc1nn(CCCN2CCN(c3cccc(Cl)c3)CC2)c(=O)n1CCOc1ccccc1 | 67.2% |
| CO[C@H]1/C=C/O[C@@]2(C)Oc3c(C)c(O)c4c(O)c(c(/C=N/N5CCN(C)CC5)c(O)c4c3C2=O)NC(=O)/C(C)=C\C=C\[C@H](C)[C@H](O)[C@@H](C)[C@@H](O)[C@@H](C)[C@H](OC(C)=O)[C@@H]1C | -42.8% |
| CC1(C)S[C@@H]2[C@H](NC(=O)Cc3ccccc3)C(=O)N2[C@H]1C(=O)[O-].[K+] | -30.9% |
| CC1(C)O[C@@H]2C[C@H]3[C@@H]4C[C@H](F)C5=CC(=O)C=C[C@]5(C)[C@H]4[C@@H](O)C[C@]3(C)[C@]2(C(=O)CO)O1 | -31.6% |
| CCOC(=O)c1ncn2c1CN(C)C(=O)c1cc(F)ccc1-2 | -20.1% |
| CCOC(=O)C1=C(C)NC(C)=C(C(=O)OC)C1c1cccc(Cl)c1Cl (stereo not shown) | -22.8% |

For quick reference, copied from above (sample 2):
| target | remaining activity [%] |
| --- | --- |
| PHKG1 (Homo sapiens, UniProt Q16816) | 40.7 |
| Cyclin-dependent kinase 6, with cyclin D3 (CDK6, Homo sapiens, UniProt Q00534) | 40.2 |
| RPS6KA5 (Homo sapiens, UniProt O75582) | 76.1 |
| EPHA4 (Homo sapiens, UniProt P54764) | 91.3 |
| DYRK3 (Homo sapiens, UniProt O43781) | 94.5 |
| AXL (Homo sapiens, UniProt P30530) | 82.9 |
| SRMS (Homo sapiens, UniProt Q9H3Y6) | 91.5 |
| TSSK2 (Homo sapiens, UniProt Q96PF2) | 96.9 |
| BLK (Homo sapiens, UniProt P51451) | 83.9 |
